Experimental data from different studies.
A part holds a random share of what one study measured.

Set 1 — technique: protein-binding microarray; molecule type: double-stranded DNA, one strand shown; matrix: in vitro; concentration: 2540 nM top; notes: 60-bp whole probe; together with: salmon DNA 0.4 mg/ml; relative to: random background probes; direction: higher = stronger binding; constant ends, left off below: GCCTAGCAC … GTCTTGATTCGCTTGACGCTGCTG
Target: Interferon regulatory factor 3, full length, phosphomimetic (IRF3, Homo sapiens, UniProt Q14653, residues 1-427, S386D/S396D/S398D/S402D/T404D/S405D)
Target sequence (chain): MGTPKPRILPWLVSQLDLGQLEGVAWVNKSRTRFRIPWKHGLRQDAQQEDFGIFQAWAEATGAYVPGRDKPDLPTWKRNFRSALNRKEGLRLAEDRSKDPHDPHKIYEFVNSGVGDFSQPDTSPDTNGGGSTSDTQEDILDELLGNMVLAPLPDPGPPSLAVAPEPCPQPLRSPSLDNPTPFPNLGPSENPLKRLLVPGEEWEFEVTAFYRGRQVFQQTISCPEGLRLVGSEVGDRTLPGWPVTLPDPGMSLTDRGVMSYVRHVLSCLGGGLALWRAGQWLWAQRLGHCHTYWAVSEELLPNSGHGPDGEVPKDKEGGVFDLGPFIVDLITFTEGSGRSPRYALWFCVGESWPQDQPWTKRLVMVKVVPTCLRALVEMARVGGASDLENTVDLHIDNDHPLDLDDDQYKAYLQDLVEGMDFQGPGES
| Sequence | fitted relative affinity [z-score] |
| --- | --- |
| TATTACCTCATCTTCCTCTGCGTGCTA | 0.934 |
| TTAGGTACCGGGACTGGGTTAGTGCTA | -0.287 |
| TCAGTCCTCTCTCTATTACTGTGCTAG | 0.74 |
| TTAAGTTTCGGGACTGGGTTAGTGCTA | 4.42 |
| GACGGACTGAGTCTCGAGACGTGCTAG | -0.723 |
| GAGAATTTCCACTTTGACTTGTGCTAG | 1.65 |
| AACTGCTGCCGTCCACCACTGTGCTAG | -0.256 |
| TTAGGGCTGGGTATCGGTTAGTGCTAG | 0.169 |
| GACTATATCGGGTATCGAGACGTGCTA | 0.343 |
| GACGGACAGGGGACTGGGGACGTGCTA | -0.883 |
| TTAGGTATCGGGACTGGGTTGGTGCTA | 1.04 |
| TTAGAACTGGGGTATCGCTTAGTGCTA | -0.649 |
| TCGTATGTGACCTTTTTAAGAGTGCTA | 2.15 |
| TTAGGTTTCCTTTCCGTTTAGTGCTAG | 11.3 |
| TTAGGACTGCTTCTACTTTAGTGCTAG | -0.226 |
| TTAGATTTCGGGACTAGATTAGTGCTA | 1.49 |
| GACGGACTTGGACTGGGGACGTGCTAG | -0.68 |
| TCATTTTCATATATATAACTGTGCTAG | 3.03 |
| GACGATTTCGGGTTTCAAGACGTGCTA | 2.7 |

Set 2 — technique: protein binding microarray; molecule type: double-stranded DNA, one strand shown; matrix: in vitro; concentration: not given; relative to: not given; direction: higher = stronger binding
Target: Histone acetyltransferase KAT6A, both winged helices, GST fusion (KAT6A, Homo sapiens, UniProt Q92794, residues 1-181)
Notes: 8-mer, flanks averaged, mean of 2 arrays, mostly near background
Residues (chain): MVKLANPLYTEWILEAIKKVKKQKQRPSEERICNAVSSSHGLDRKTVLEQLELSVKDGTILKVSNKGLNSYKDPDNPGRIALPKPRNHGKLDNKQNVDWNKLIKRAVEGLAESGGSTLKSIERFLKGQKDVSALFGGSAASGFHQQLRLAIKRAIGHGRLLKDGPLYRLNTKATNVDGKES
| Sequence | E-score |
| --- | --- |
| AACTGCCC | -0.101 |
| CACGGTTC | -0.0837 |
| ATGGACTA | -0.131 |
| GCGGCTTA | 0.284 |
| AAAGCTAT | -0.0136 |
| GACAGAGA | -0.0536 |
| TATAGAGA | -0.115 |
| GCTACGCA | 0.168 |
| AACGTTAG | 0.0835 |
| AGGCCGGG | 0.185 |
| GGTATTCA | 0.0266 |
| AAGCCTAT | -0.051 |
| AAAGGGGT | -0.271 |
| ATGCGATG | 0.0959 |
| ATTCAGCC | 0.0898 |
| ACAAGCCT | -0.0604 |
| CGGGTTCA | 0.307 |
| ATGTTTTC | 0.0524 |
| AACTTGAG | -0.18 |
| ATTGATTA | -0.0176 |

Set 3 — technique: RNA Bind-n-Seq; molecule type: RNA; matrix: in vitro; concentration: 200 nM; notes: whole 134-nt RNA, ends assumed; together with: 150 mM KCl; relative to: input library; direction: higher = stronger binding
Target: Ras GTPase-activating protein-binding protein 1, full length (G3BP1, Homo sapiens, UniProt Q13283)
Chain of UniProt Q13283 (whole entry, looked up): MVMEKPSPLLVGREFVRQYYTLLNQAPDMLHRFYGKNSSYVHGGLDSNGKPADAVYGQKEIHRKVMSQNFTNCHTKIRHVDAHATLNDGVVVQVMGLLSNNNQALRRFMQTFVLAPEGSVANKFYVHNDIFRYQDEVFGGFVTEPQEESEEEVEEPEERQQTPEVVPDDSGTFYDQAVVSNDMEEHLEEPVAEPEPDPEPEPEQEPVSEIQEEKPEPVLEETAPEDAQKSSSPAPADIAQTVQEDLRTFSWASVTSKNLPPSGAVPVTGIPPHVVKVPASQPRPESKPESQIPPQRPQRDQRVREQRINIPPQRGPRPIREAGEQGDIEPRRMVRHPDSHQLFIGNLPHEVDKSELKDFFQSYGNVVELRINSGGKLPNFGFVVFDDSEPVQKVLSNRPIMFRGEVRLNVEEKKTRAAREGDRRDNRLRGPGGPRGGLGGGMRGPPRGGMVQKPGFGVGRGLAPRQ
Constant ends, left off below: GGGAGUUCUACAGUCCGACGAUC … UGGAAUUCUCGGGUGUCAAGG
| Sequence | log2 enrichment |
| --- | --- |
| CAAGUCCUGUGCUACACAUCGUAUGUACCGAAUCGGGAAAAAAAGGGUGGGAGGGAAAGUAUUAUGUUACGCCGUUCGGAUCUGCACUUC | 0.598 |
| AGUCCUGUGCUACACAUCGUAUGUACCGAAUCGGUUUUUGGGUUUUUGGGUUUUUGGGAAAGUAUUAUGUUACGCCGUUCGGAUCUGCAC | -1 |
| UGCAGGGUCUGGGUAGCAGCUGGGCUUCCAGCUUUCUCCUUGCACCUGACUUGGGCUUUUUUCUCCUCACAGGAUGGGCCUUGACGGCAU | -0.412 |
| GUCCUGUGCUACACAUCGUAUGUACCGAAUCGGGAAAGGGAAAAAGGGUUUUUUUGGGAAAGUAUUAUGUUACGCCGUUCGGAUCUGCAC | -0.512 |
| UAACUUUAGAGGAGGAUCUGAUGGAUAUGGAAGUGGACGUGGAUUUGGGGAUGGCUAUAAUGGGUAUGGAGGAGGACCUGGAGGUGGCAA | 0.388 |
| CUCAAGUCCUGUGCUACACAUCGUAUGUACCGAAUCGGGCCGGGCCGGGCCGGAAAGUAUUAUGUUACGCCGUUCGGAUCUGCACUUCCA | -0.244 |
| CACAGACAACACGCACCCACACAGACACAGAGGGAAGGGGUUGGGAUGGGGACAGGGUGCACAGCACGGCGGGGUAGGACCCCAGCCCCU | 1.8 |
| CACAGACAACACGCACCCACACAGACACAGAGGGAAGGGGUUGGGAUGGGGACAGGGUGCACAGCAGGGCGGGGUCGGACCCCAGCCCCU | 1.99 |
| UGGUGUUAUUUUUGCACUACAAGGGCUCUGAAGACUGCCAGGCUUGAAAUGAAGAACGAUGUCACCUGCCUAUCACAGCCAGGUGACAAU | -2.39 |

Set 4 — technique: RNA Bind-n-Seq; molecule type: RNA; matrix: in vitro; concentration: 20 nM; notes: 6-mer, flanks averaged, single round; together with: 150 mM LiCl; relative to: input library; direction: higher = stronger binding
Target: TAR DNA-binding protein 43, full length, His tag (TARDBP, Homo sapiens, UniProt Q13148, residues 1-414)
| Sequence | 6-mer enrichment (R) |
| --- | --- |
| AGCCCC | 1.13 |
| GAAGCC | 0.893 |
| GGGGUC | 1.16 |
| GGCACG | 0.992 |
| AUGGGU | 1.25 |
| AGAAAU | 0.848 |
| UCUACC | 0.868 |
| CCCACC | 1.06 |
| CGGUCG | 0.965 |
| CUAACA | 0.836 |
| CCUACU | 0.908 |
| CCCGUA | 0.959 |
| GACGCA | 0.866 |
| UGACAC | 1.08 |

Set 5 — technique: aptamer microarray, sandwich; molecule type: DNA with 2'F-ANA; matrix: in vitro; concentration: 200 nM; together with: Cy3 exosite-II aptamer, 400 nM; direction: higher = stronger binding; sequence: GGTTGGTGTGGTTGG
Target: Prothrombin, mature alpha-thrombin (F2, Homo sapiens, UniProt P00734)
Notes: whole 15-mer aptamer, many near background
| Modification | mean fluorescence intensity [a.u.] |
| --- | --- |
| 2'F-ANA at 1 2 12 13 14 | 66 |
| 2'F-ANA at 1 2 5 9 11 12 13 14 | 48.6 |
| 2'F-ANA at 1 5 6 11 12 14 | 45.7 |
| 2'F-ANA at 1 2 4 9 11 14 15 | 53.2 |
| 2'F-ANA at 1 2 4 5 6 9 10 13 15 | 48.9 |
| 2'F-ANA at 1 3 5 6 8 9 10 12 15 | 54.1 |
| 2'F-ANA at 5 10 11 12 13 14 | 48.9 |
| 2'F-ANA at 3 5 7 10 13 | 56.1 |
| 2'F-ANA at 1 4 5 6 9 11 12 13 14 15 | 58.5 |
| 2'F-ANA at 1 2 3 4 6 10 12 13 14 | 50.4 |
| 2'F-ANA at 1 6 7 8 9 11 12 13 14 | 71.1 |
| 2'F-ANA at 1 2 4 8 11 13 14 15 | 51.1 |
| 2'F-ANA at 5 6 7 9 10 11 13 14 15 | 49.5 |
| 2'F-ANA at 2 3 6 8 9 10 11 15 | 265 |
| 2'F-ANA at 1 4 6 8 9 15 | 133 |
| 2'F-ANA at 3 12 14 | 791 |
| 2'F-ANA at 2 3 8 10 11 12 13 15 | 372 |
| 2'F-ANA at 1 6 8 10 12 13 | 65.4 |
| 2'F-ANA at 1 3 5 7 9 12 14 15 | 59 |
| 2'F-ANA at 2 7 8 11 13 15 | 387 |
| 2'F-ANA at 2 4 5 8 9 10 14 | 45.7 |
| 2'F-ANA at 1 2 3 4 6 7 9 11 12 13 14 | 71.3 |
| 2'F-ANA at 1 6 7 8 9 10 12 | 73 |
| 2'F-ANA at 6 7 10 13 14 | 112 |
| 2'F-ANA at 3 7 9 12 13 | 1230 |

Repeated from above (set 1):
| Sequence | fitted relative affinity [z-score] |
| --- | --- |
| TTAGGTATCGGGACTGGGTTGGTGCTA | 1.04 |
| TTAGAACTGGGGTATCGCTTAGTGCTA | -0.649 |
| TCGTATGTGACCTTTTTAAGAGTGCTA | 2.15 |
| TTAGGTTTCCTTTCCGTTTAGTGCTAG | 11.3 |
| TTAGGACTGCTTCTACTTTAGTGCTAG | -0.226 |
| TTAGATTTCGGGACTAGATTAGTGCTA | 1.49 |
| GACGGACTTGGACTGGGGACGTGCTAG | -0.68 |
| TCATTTTCATATATATAACTGTGCTAG | 3.03 |
| GACGATTTCGGGTTTCAAGACGTGCTA | 2.7 |
